{"data": "Assay results pooled from the literature", "note": "Each line is one published result; not all experiments were run side by side. ± gives the spread as reported."}
{"Structure (SMILES)": "CCCCCCCOc1ccc(CCC(N)(CO)CO)cc1C(F)(F)F.Cl", "test system": "healthy male humans, plasma", "setting": "oral, 0.125 to 0.75 mg, mean", "half-life [h]": "386 to 423"}
{"Structure (SMILES)": "CNC(=O)c1ccc(-c2cnc3ncc(Cc4ccc5ncccc5c4)n3n2)cc1F", "test system": "healthy human subjects, plasma", "setting": "oral, 400 mg, geometric mean, alone", "half-life [h]": 9.71}
{"Structure (SMILES)": "O=C(/C=C/c1cccc(S(=O)(=O)Nc2ccccc2)c1)NO[C@@H]1O[C@H](C(=O)O)[C@@H](O)[C@H](O)[C@H]1O", "test system": "human mild liver dysfunction, plasma", "setting": "intravenous, 400 mg/m^2, 30 min infusion, cycle 1 day -7, together with: belinostat 400 mg/m^2 iv", "half-life [h]": 4.1}
{"Structure (SMILES)": "CCCCC1(CCCC)CN(c2ccccc2)c2cc(SC)c(OCC(=O)N[C@@H](C(=O)NCC(=O)O)c3ccccc3)cc2S(=O)(=O)C1", "assay": "LC-MS/MS", "test system": "human, plasma", "setting": "oral, 15 mg, single dose, fasted", "half-life [h]": 9.9}
{"Structure (SMILES)": "CC(=O)c1c(C)c2cnc(Nc3ccc(N4CCNCC4)cn3)nc2n(C2CCCC2)c1=O", "test system": "human", "setting": "oral, 50 mg/m^2 repeated doses, day 21", "half-life [h]": "19.5 ± 7"}
{"Structure (SMILES)": "CN(Cc1nc2c(N)nc(N)nc2[nH]c1=O)c1ccc(C(=O)N[C@@H](CCC(=O)O)C(=O)O)cc1", "test system": "human, plasma", "setting": "oral, 20 mg methotrexate, day 1, alone, arithmetic mean", "half-life [h]": 12}
{"Structure (SMILES)": "CO[C@H]1C[C@@H]2CC[C@@H](C)[C@@](O)(O2)C(=O)C(=O)N2CCCC[C@H]2C(=O)O[C@H]([C@H](C)C[C@@H]2CC[C@@H](O)[C@H](OC)C2)CC(=O)[C@H](C)/C=C(\\C)[C@@H](O)[C@@H](OC)C(=O)[C@H](C)C[C@H](C)/C=C/C=C/C=C/1C", "test system": "healthy adult human, blood", "setting": "0.5 mg single dose, harmonic mean, together with: ritonavir-containing 3D regimen", "half-life [h]": 249}
{"Structure (SMILES)": "COc1cc(N2CCC(N3CCN(C)CC3)CC2)ccc1Nc1ncc(Cl)c(Nc2ccccc2P(C)(C)=O)n1", "test system": "healthy humans, plasma", "setting": "oral, 90 mg, geometric mean, together with: gemfibrozil", "half-life [h]": 33.9}
{"Structure (SMILES)": "CC(C)[C@H](N)C(=O)NCCCS(=O)(=O)O", "test system": "human, both sexes, plasma", "setting": "oral, 172 mg capsule", "half-life [h]": "0.87 ± 0.2"}
{"Structure (SMILES)": "CC[C@H](C)[C@@H]1NC(=O)[C@H](CCCNC(=N)N)NC(=O)[C@H](CC(=O)O)NC(=O)[C@H](CC(C)C)NC(=O)[C@H](CCCCN)NC(=O)[C@H](CC(C)C)NC(=O)CNC(=O)[C@H](Cc2ccccc2)NC(=O)[C@@H](NC(=O)CNC(=O)[C@H](CCCCN)NC(=O)[C@H](CO)NC(=O)[C@H](CC(C)C)NC(=O)CNC(=O)[C@H](CCCCN)NC(=O)[C@H](CCCCN)NC(=O)[C@H](CC(N)=O)NC(=O)[C@H](C)NC(=O)CNC(=O)[C@H](CCCCN)NC(=O)[C@H](Cc2ccc(O)cc2)NC(=O)[C@H](CCCCN)NC(=O)[C@H](CCCNC(=N)N)NC(=O)[C@H](C)NC(=O)[C@H](CC(N)=O)NC(=O)[C@@H]2CCCN2C(=O)[C@H](Cc2c[nH]cn2)NC(=O)[C@H](CCC(=O)O)NC(=O)[C@H](CCC(N)=O)NC(=O)CNC(=O)[C@@H]2CCCN2)CSSC[C@@H](C(=O)O)NC(=O)CNC(=O)[C@H](CC(C)C)NC(=O)CNC(=O)[C@H](CO)NC(=O)[C@H](CCSC)NC(=O)[C@H](CO)NC(=O)CNC1=O", "test system": "human, plasma", "setting": "subcutaneous, 15 µg/kg once daily, week 26", "half-life [h]": 0.443}
{"Structure (SMILES)": "COCCCCn1c(C(=O)N(CC(C)C)[C@@H]2CNC[C@H](C(=O)N3CCOCC3)C2)nc2ccccc21", "test system": "non-elderly human, plasma", "setting": "oral, 160 mg once daily, day 1", "half-life [h]": 8}
{"Structure (SMILES)": "CCCC[C@H](NC(C)=O)C(=O)N[C@H]1CCC(=O)NC[C@@H](C(=O)N[C@@H](Cc2c[nH]c3ccccc23)C(N)=O)NC(=O)[C@H](CCCNC(=N)N)NC(=O)[C@@H](Cc2ccccc2)NC(=O)[C@H](Cc2c[nH]cn2)NC1=O", "test system": "healthy human, both sexes, plasma", "setting": "subcutaneous, 3.0 mg once daily, day 7, median", "half-life [h]": 11.4}
{"Structure (SMILES)": "O=C(c1cccnc1-c1ccncc1)N1CCC(O)(Cc2ccccc2)CC1", "test system": "healthy human, plasma", "setting": "oral, 400 mg once daily, day 14, arithmetic mean", "half-life [h]": 3.66}
{"Structure (SMILES)": "N[C@@H](CC(=O)N1CCn2c(nnc2C(F)(F)F)C1)Cc1cc(F)c(F)cc1F", "test system": "human, both sexes, plasma", "setting": "oral, dose not given", "half-life [h]": "11.5 ± 1.4"}
{"Structure (SMILES)": "NC(=O)N1CCC(CC(=O)N2CCC([C@H]3c4ncc(Br)cc4CCc4cc(Cl)cc(Br)c43)CC2)CC1", "test system": "human, plasma", "setting": "oral, 100 mg twice daily, cycle 2 day 15, multiple dose, together with: gemcitabine 1000 mg/m2", "half-life [h]": 3.79}
{"Structure (SMILES)": "CN1C(=O)[C@@H](NC(=O)c2nnc(Cc3ccccc3)[nH]2)COc2ccccc21", "test system": "human male, plasma", "setting": "oral, 120 mg twice daily, day 14", "half-life [h]": 2.4}
{"Structure (SMILES)": "Cc1[nH]c(/C=C2\\C(=O)Nc3ccccc32)c(C)c1CCC(=O)O", "test system": "human patients", "setting": "oral, 400 mg/m^2 twice daily, after meal, dose 55", "half-life [h]": "2.62 ± 0.441"}
{"Structure (SMILES)": "Cc1c(Cl)c(C)[n+]([O-])c(Cl)c1-c1noc(-c2cc(O)c(O)c([N+](=O)[O-])c2)n1", "assay": "LC-MS/MS", "test system": "healthy male human, fasted, plasma", "setting": "oral, 25 mg single dose, capsule", "half-life [h]": "0.748 ± 0.19"}
{"note": "Repeated from above:"}
{"Structure (SMILES)": "N[C@@H](CC(=O)N1CCn2c(nnc2C(F)(F)F)C1)Cc1cc(F)c(F)cc1F", "test system": "human, both sexes, plasma", "setting": "oral, dose not given", "half-life [h]": "11.5 ± 1.4"}
